Experimental data from different studies.
Numbered parts are unrelated; each lists some results of a single study. Changes are numbered by the printed parent chain.

Block 1
Target: Ras GTPase-activating protein-binding protein 1, full length (G3BP1, Homo sapiens, UniProt Q13283)
Sequence of UniProt Q13283 (whole entry, looked up): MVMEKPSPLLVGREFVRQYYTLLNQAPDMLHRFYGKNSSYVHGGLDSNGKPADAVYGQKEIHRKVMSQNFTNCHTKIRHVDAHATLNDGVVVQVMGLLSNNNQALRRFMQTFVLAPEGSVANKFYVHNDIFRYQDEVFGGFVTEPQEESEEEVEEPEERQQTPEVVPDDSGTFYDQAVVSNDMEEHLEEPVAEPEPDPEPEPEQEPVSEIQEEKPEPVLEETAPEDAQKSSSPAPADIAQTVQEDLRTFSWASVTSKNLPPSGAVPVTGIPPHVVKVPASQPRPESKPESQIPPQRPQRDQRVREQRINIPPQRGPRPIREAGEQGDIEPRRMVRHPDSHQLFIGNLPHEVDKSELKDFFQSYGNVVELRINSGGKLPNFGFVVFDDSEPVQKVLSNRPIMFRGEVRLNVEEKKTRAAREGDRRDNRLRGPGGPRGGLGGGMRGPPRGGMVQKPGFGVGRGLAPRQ
Method: RNA Bind-n-Seq
Molecule type: RNA
Sample: in vitro
Tested at: 200 nM
Notes: whole 134-nt RNA, ends assumed
Added: 150 mM LiCl
Reference: input library
Reading: higher = stronger binding
Library: 7-deaza-guanosine replaces G
Constant ends, left off below: GGGAGUUCUACAGUCCGACGAUC … UGGAAUUCUCGGGUGUCAAGG
Sequence	log2 enrichment
GUCCUGUGCUACACAUCGUAUGUACCGAAUCGGGGUUUUUGGUUUUUGGGGUUUUUGGAAAGUAUUAUGUUACGCCGUUCGGAUCUGCAC	-0.292
UCCUGUGCUACACAUCGUAUGUACCGAAUCGGGGUUUUUGGGGUUUUUGGGUUUUUGGGGAAAGUAUUAUGUUACGCCGUUCGGAUCUGC	0.0656
UAACUUUAGAGGUGGAUCUGAUGGAUAUGGCAGUGGACGUGGAUUUGGGGAUGGCUAUAAUGGGUAUGGAGGAGGACCUGGAGGUGGCAA	0.161
UCAAGUCCUGUGCUACACAUCGUAUGUACCGAAUCGGGGAAGGGAAGGAAGGGGAAAGUAUUAUGUUACGCCGUUCGGAUCUGCACUUCC	-0.154
GUGCUACACAUCGUAUGUACCGAAUCGGGGAAAAAAAGGGGUUUUUUUGGGGAAAAAAAGGGGAAAGUAUUAUGUUACGCCGUUCGGAUC	-1.1
GUCCUGUGCUACACAUCGUAUGUACCGAAUCGGCCCCCCGGGCCCCCCGGCCCCCCGGAAAGUAUUAUGUUACGCCGUUCGGAUCUGCAC	0.0339
AAGUCCUGUGCUACACAUCGUAUGUACCGAAUCGGCCCCGGGGCCCCGGGGCCCCGGAAAGUAUUAUGUUACGCCGUUCGGAUCUGCACU	-2.15
UGGCCCUGGUGGCAUGCGGGGAGGAAGAGGUGGCCUCAUGGAUCGUGGUGGUCCCGGUGGAAUGUUCAGAGGUGGCCGUGGUGGAAACAG	-0.194
UCCUGUGCUACACAUCGUAUGUACCGAAUCAAACCCCCAAAUUUUUAAACCCCCCCAAAAAAGUAUUAUGUUACGCCGUUCGGAUCUGCA	1.29
CUCAAGUCCUGUGCUACACAUCGUAUGUACCGAAUCGGUUGGGUUGGGUUGGGAAAGUAUUAUGUUACGCCGUUCGGAUCUGCACUUCCA	0.357
CCUGUGCUACACAUCGUAUGUACCGAAUCGGGGUUUUUUGGGUUUUUUGGGGUUUUUUGGAAAGUAUUAUGUUACGCCGUUCGGAUCUGC	1.09

Block 2
Target: RNA binding protein fox-1 homolog 2, RRM domain, GST-SBP tag (RBFOX2, Homo sapiens, UniProt O43251-10, residues 100-194)
Method: RNA Bind-n-Seq
Molecule type: RNA
Sample: in vitro
Tested at: 365 nM
Notes: natural RNA segment, single round, ends assumed
Reference: no-protein control
Reading: higher = stronger binding
Constant ends, left off below: GGGAGUUCUACAGUCCGACGAUC … UGGAAUUCUCGGGUGCCAA
Residues (chain): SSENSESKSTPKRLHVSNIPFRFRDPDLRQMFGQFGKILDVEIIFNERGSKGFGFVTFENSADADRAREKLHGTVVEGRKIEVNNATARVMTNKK
Sequence	RBNS enrichment (R)
UAAAUGUGGGCUCCCUGUUAAGUGGGGCUCAUGGAUACGAGGCCUGAGGAAGUGUGGCUUGCUAGUCUGUUACGUUAACAUGCUUUUCUAAAAUUGCUUCACGUGUUAAU	0.49
UGCCAAACAUUUUAUUAAGAAAGUAAAGCCCAGAUUUGAAUGGGGGUUUUCCCUAGGCCUUAUAGUAUAGAGGCAUUUGUAAUAUGGAGAAAAUAAUUUUUCUCAUUUAA	2.2
GACAUCAGAAAUCACCAGAACCUUCAGGAUCGCCUGCAGGCAGCCCAUCUACUGCUGGCCAGGAGCCCCCAGUGCCCUGUGGUGGUGGACACCAUGCAGAACCAGAGCAG	0.274
CUCGGCAUCUCUCGUAUGUGGCAUAUUGCUUUUGCCACUUUCCUAUCCAGCAGACAUCAAAGCAAAACUAAAAGGUAGAUAUCUGGAAUGAAUGUAUAUGUUGUAAUUGA	0.875
AGAUUGAUUUAAUUGUGGGCCACAACAGGAGACCUUCUUGGGAAUACAAAUGCAAAAUGCCUUAUACUGAAGCAGUUUUACAUGAAGUUUUAAGAUUCUGUAAUAUAGUU	0.472
UUGGAACAGAGUUUUCUGAGAAAACAUUUUCAAGUUAAAGGAAAAUGCUAAGUCUGGCAUGGUAGUCAACACCUAUAAUCUCUGCACUCAGAGGCUGAGGAAGAAAGAUC	0.273
AUAAAUGUAUAUCUUGAAAAAGAUAUAGGUCACAGGUGGCUUAACUCUCCCUAGUUCUCAGUAGAAUAGUUCAAACAAUAUUACUUAUGUUAAUUAGAAGGGGCUUUUGU	0.431
CCAGGCCAUGAUGGGCUGGCGACAGCCCGGCUGAGCUUCAGUGAGGUGCCACCAGCACCCGUGCCUCCGAAGACCGCUCGGGCAUUCCGCCUGCGCCCUGGGACAGCGGA	0.369
AGAGAUUUGAUCUCAUGCGAGUCAUCAAUAGGACAAAAAAGUUGUGGUUUGGGGAGGUCUGUUUGUUACAUAAAAAGGACCUUUCGGUGUAAGAAAUUGCCGUUUUUACC	0.466
CUGGCCAGCUAGAGACCGUUCUAAAGUCCACUGGAAGUCAAGAAUCUCGUUUACUGAUAAUAGUAAAGUUGAUUCAUGACCCCUGUCCUUUUUUUUCUACUGAUCUACCC	0.271
UAGUUCUAGCCCUUCUGCCUGUGUAGACAGAAGCUAAACCACCAGUCUCUCUCGGAGGAAGCUGAGACAACAUACUCUGUCCAUACAUAAGCAGGCAGGGAGGGCCAUGC	0.517
AGGGAUGCAUAAAAUAAUGUUAAUGUUUUCAGUAAUGUCUUCAAGUAGAAGACUUUCUGUUGAACUACUUAUAAGAAAGUAAAAUAAAUAUUGUCUUUUUGUAUGUCACC	0.446

Block 3
Target: Interferon regulatory factor 5, full length, phosphomimetic (IRF5, Homo sapiens, UniProt Q13568-2, residues 1-514, K96S/S451D/S453D/S456D/S462D)
Method: protein-binding microarray
Molecule type: double-stranded DNA, one strand shown
Sample: in vitro
Tested at: 250 nM
Notes: 60-bp whole probe
Added: salmon DNA 0.4 mg/ml
Reference: random background probes
Reading: higher = stronger binding
Constant ends, left off below: GCCTAGCAC … GTCTTGATTCGCTTGACGCTGCTG
Sequence	log fluorescence
TTAGGGTTCGGTTTCGGTTAGTGCTAG	8.69 z-score
GACGGTTTCCTTCTCCTGAGGTGCTAG	0.733 z-score
TTAGGTATCGACTTTCCGTTAGTGCTA	4.16 z-score
ATCAGTTTAATATCTAAGATTGTGCTA	1.06 z-score
TCAGCTACACATCTCACACTGTGCTAG	-0.000364 z-score
TTAGGTCTCGGACTTGGTTAGTGCTAG	-0.334 z-score
ATTTTTTTTTTCATCATTGCGTGCTAG	1.31 z-score
TTAGATATCGGGGCTGGATTAGTGCTA	0.836 z-score
TACGGTATCCTACTGCTGACGTGCTAG	-0.308 z-score
TTAGGTTTCGGGTTTCGGCTAGTGCTA	8.37 z-score
TACGATATCGGGACTGGAGACGTGCTA	0.889 z-score
TTAGGTTTCGGATTCGGTTAGTGCTAG	7.22 z-score
GACAGTATCGACTTTCGGGACGTGCTA	8.01 z-score
GACGATTCCAGCTTCGAGACGTGCTAG	-0.186 z-score
TTAGGATTGGGACTGGGTTAGTGCTAG	-0.0702 z-score
CCAAATCTGTGTTATTAAAATGTGCTA	0.377 z-score
TTTCCTTCCTCTTTTACCCCGTGCTAG	3.56 z-score
GACGGTTTCCTTAGCCTGACGTGCTAG	0.418 z-score

Block 4
Target: ABI1, truncated, D143A, DHFR fusion (Arabidopsis thaliana)
Method: DHFR PCA, deep sequencing
Sample: yeast
Notes: methotrexate growth selection, single substitutions
Added: (+)-ABA 0.0091 µM
Reference: wild-type fitted maximum
Reading: higher = stronger binding
Starting sequence: PYL1, truncated, DHFR fusion (Arabidopsis thaliana); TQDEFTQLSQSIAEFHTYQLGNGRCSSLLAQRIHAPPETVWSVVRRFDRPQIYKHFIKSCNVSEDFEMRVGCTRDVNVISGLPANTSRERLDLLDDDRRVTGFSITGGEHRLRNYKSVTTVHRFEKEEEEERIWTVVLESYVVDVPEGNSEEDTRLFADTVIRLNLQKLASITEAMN; partner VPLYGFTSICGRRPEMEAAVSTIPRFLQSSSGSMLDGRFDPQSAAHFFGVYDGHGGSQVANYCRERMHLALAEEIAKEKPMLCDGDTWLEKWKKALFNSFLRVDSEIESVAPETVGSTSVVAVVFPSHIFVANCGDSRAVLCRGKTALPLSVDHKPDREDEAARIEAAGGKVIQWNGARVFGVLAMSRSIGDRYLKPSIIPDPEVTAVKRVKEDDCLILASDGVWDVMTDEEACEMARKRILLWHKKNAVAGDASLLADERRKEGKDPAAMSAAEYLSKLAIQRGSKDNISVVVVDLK
Substitution	relative binding score [%]
D97T	40.4
M68G	-0.614
V100K	-5.98
D65F	5.86
S80W	63.7
V70K	3.67
S80K	1.66
S9M	23.4
E125I	22.6
E67Y	1.53
L156E	1.72
R46V	-2.61
G148R	-2.65
P146W	-0.165
P83H	7.19
Q10F	0.303
E131R	56.3
L29Y	0.449
L28E	3.81
L169N	-1.39
L112F	4.9
N85L	62.4
S42T	3.63
